Published values of several laboratories.
Numbered parts are unrelated; each lists some results of a single study.

Set 1 — method: RNA Bind-n-Seq; form: RNA; matrix: in vitro; concentration: not given; reference: input RNA pool; reading: higher = stronger binding; measurement: bound/input enrichment
Target: RING finger protein unkempt homolog, zinc fingers 1-6, GST-SBP tag (UNK, Homo sapiens, UniProt Q9C0B0, residues 30-357)
Notes: RNA with constant flanks, human-mouse chimeric sites, ends assumed
All sequences stand within: GGGAGUUCUACAGUCCGACGAUC … CAACAGAGGAUUGAGCAUCA
Construct (chain): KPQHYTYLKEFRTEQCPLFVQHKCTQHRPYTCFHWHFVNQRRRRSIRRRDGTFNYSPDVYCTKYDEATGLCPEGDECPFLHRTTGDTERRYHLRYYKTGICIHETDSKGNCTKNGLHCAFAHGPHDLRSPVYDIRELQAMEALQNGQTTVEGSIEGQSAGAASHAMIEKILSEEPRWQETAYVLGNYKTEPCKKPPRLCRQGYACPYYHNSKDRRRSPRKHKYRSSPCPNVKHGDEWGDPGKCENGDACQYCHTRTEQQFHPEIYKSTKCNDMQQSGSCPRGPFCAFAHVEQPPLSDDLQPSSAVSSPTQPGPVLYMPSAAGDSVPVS
GACUUUGGAACUGGUCCUCGCAACGCAGCCUUCUAUAGCCCUCAUGGACAUAUAUUAGUGCUGGCUGGAUUUGGAAAUCUGAGGGGACAAAUGGAAGUAUGGGAUGUUAAAAACUACAAG: 0.364 ratio
AGAUUCCCUCUCUUAAAACCUCCUCCGAAGUUGGAGUCUCUUACAGAUGCCUCAUCCCCUGUUAGCGUUUUGGUCUGGACCACCCAGCCUUGGACAAUUCCCGCCAACCAGGCAAUUUGC: 0.438 ratio
AAAGAGAAACUAAAGCAACUAAUAGAGAAGAGGAUUGGGCAAAGAGAUUUCAUAGAGAAACUAGGAUUUAUUAGCAAACAUGAGUUAGUAUUCCAGACGUCUCAGAAACCCCAGCCAAAC: 2.17 ratio
CGCUGGCCCAAGCUGAUGGACUCUGAUGGCCUCCAUCUCUCAGGCACGUGUGCCUUCUCUUAGUCCCUUCUGGGUUGUCACAAAGCUUCUCAGUACUGUGGUUUGAAAGCACCAGCUUUG: 0.161 ratio
AAAGUGAUGACUAUGUUUGUACAGCGACAGGUGUUUGCGGAGAGCAAAGAUGAGAUUGCGUUAGUCCUCUAUGGCACAGAUGGCACUGAUAAUGCCCUUGCUGGCAAGGACCAGUAUCAG: 0.196 ratio
GCUCCUCCCCGCUCUGCAGCCUGGGGACACUGGGCUGCAUUUUUUUUCUUAUUUUUUUUUAAAACUCUCAGUGUAACUGUAUCCCGUGACAUUUCAUUUUUUUUAAAUAGUGUAUUUUUU: 23.8 ratio
AUGGAACAUUUCGAUGCGUCACUCAGUACCUAUUUCAAGGCCUUCCUAGGCCCUCGAGAUACAAGAGUCAAAGGAUGGUUCCUCCUGGACAAUUACAUACCCACAUUUGUCUGUUCUGUU: 0.0827 ratio
GCAAAGGAUGAUGAGGCGGCAGCUGUUGCCCUUUCCUCUCUCGUUCAUGCUUUGGAUGAGUUAAACAUGGUCGCCAUCGUCCGAUAUGCUUAUGACAAAAGAGCUAAUCCUCAAGUUGGU: 0.259 ratio
GAAUCCUACUCAGGCGGAUUUUGCAACACCAAGCUCACAGCAGCAGCUCCAUAGUCACAGUAGGGUAGUUUUGGGGCUCUGUGGCCAGGGUUUUAUUCACAUGCAGGUUUUGAAAAUGUA: 0.471 ratio
GGGACUGAUUCAUCCCAAGGACAGGCCACCCCAUUUGAUGCCUGGACUGAUGACAGUAUGUUAGGGCCUAGUCAAAAUUUUGAAGCUGAGUCAAUUCAGGAUGCCAUGAGUAUGGAAGAG: 1.07 ratio
GGGACUGAUUCAUCCCAAGGACAGGCCACCCCAUUUGAUGCCUGGACUGACGACAGUAUGGAAGGGCCUAGUCAAAAUGUUGAAGCUGAGUCAAUUCAAGAUAAUGCGAGUAUGGAAGAG: 0.474 ratio

Set 2 — method: protein-binding microarray; form: double-stranded DNA, one strand shown; matrix: in vitro; concentration: 940 nM top; notes: 60-bp whole probe; together with: salmon DNA 0.4 mg/ml; reference: random background probes; reading: higher = stronger binding; measurement: fitted relative affinity; all sequences stand within: GCCTAGCAC … GTCTTGATTCGCTTGACGCTGCTG
Target: Interferon regulatory factor 5, full length, phosphomimetic (IRF5, Homo sapiens, UniProt Q13568-2, residues 1-514, S451D/S453D/S456D/S462D)
TTGGTGCTCATTTTTTTTGCGTGCTAG: 0.441 z-score
TCATCCCTAATTCTGATACTGTGCTAG: 0.504 z-score
TTTGGTTTCCTTATCCTTTAGTGCTAG: 3.2 z-score
TCAACACTCTTCTTTTGCACTGTGCTA: 1.05 z-score
TTAGATTTCAGTATCGACTAGTGCTAG: 3.6 z-score
GACGAACTGAGACTGGAGTCGTGCTAG: -0.263 z-score
TATTTTTACATTATTACCTCGTGCTAG: 1.11 z-score
TTAGATTCCAGTTTAGATTAGTGCTAG: 0.33 z-score
GACGGTATCGGGTATTGGGACGTGCTA: 4.52 z-score
AAAACTAGGGCATTTAGAAAAGTGCTA: -0.491 z-score
GACGGACTGGTCACTGGGGACGTGCTA: -0.231 z-score
TAAAACATCATTTTTCCCTCGTGCTAG: 0.284 z-score
TTCATTTTGTGTCTGGGCATGTGCTAG: 0.0895 z-score
GACGGACTGGGGTATCGGTACGTGCTA: 1.93 z-score
TTAGGTTTCATTCTCCTTTAGTGCTAG: 6.17 z-score
TCATGTCCCTATTTAAGACTGTGCTAG: 0.308 z-score
TCACTTTTCATTTTCTTACTGTGCTAG: 2.43 z-score
TCAAAAATGCCCTTTTGGACTGTGCTA: 0.256 z-score
GACGGTCTCGGGTATCGGGACGTGCTA: 2.27 z-score
TTAGAACTGAGTATCTATTAGTGCTAG: 0.68 z-score
GACCGTATCGGACTGGGGACGTGCTAG: 0.55 z-score
TTAAAACTGGGGTTTCGATTAGTGCTA: 5.67 z-score
GCCGGTTTCGACTATCGGGACGTGCTA: 9.19 z-score
GACGATCTCAGTCTCGAGAGGTGCTAG: 0.81 z-score
TCAAGACTCTCTTGTCTGACTGTGCTA: -0.0305 z-score

Set 3 — method: protein binding microarray; form: double-stranded DNA, one strand shown; matrix: in vitro; concentration: not given; reference: not given; reading: higher = stronger binding; measurement: E-score
Target: Histone acetyltransferase KAT6A, winged helix 1, GST fusion (KAT6A, Homo sapiens, UniProt Q92794, residues 1-85)
Notes: 8-mer, flanks averaged, mean of 2 arrays, mostly near background
Residues (chain): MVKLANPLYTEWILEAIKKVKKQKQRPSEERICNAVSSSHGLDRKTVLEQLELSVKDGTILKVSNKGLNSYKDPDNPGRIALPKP
AGCTGTAT: -0.216
CATTGGAG: -0.0275
CACTGGGA: -0.222
CTCCTTTC: 0.0483
CCGACATA: 0.152
GCTCACAC: -0.0952
AAAAACTG: -0.228
CGACGAAA: -0.252
GCATTCCC: 0.0603
TTACACAA: 0.0251
AGCCAAGA: -0.244
GGAGAAAA: -0.0543
CATTTCCA: -0.171
ACGCTGTA: 0.094
GCAACTGA: 0.00012
AGTTTTGC: 0.0871
CTACCAGC: -0.042
TAGATAGA: -0.165
CCCTGGCG: 0.123
GCTAGTAA: -0.0902
CCGTATTC: 0.195
CGAGACCG: 0.243
GCCGAGAA: 0.243

Set 4 — method: universal PBM; form: double-stranded DNA, one strand shown; matrix: in vitro; concentration: 600 nM; reading: higher = stronger binding; measurement: E-score
Target: Sal-like protein 4, full length isoform A (SALL4, Homo sapiens, UniProt Q9UJQ4, residues 1-1053)
Chain of UniProt Q9UJQ4 (whole entry, looked up): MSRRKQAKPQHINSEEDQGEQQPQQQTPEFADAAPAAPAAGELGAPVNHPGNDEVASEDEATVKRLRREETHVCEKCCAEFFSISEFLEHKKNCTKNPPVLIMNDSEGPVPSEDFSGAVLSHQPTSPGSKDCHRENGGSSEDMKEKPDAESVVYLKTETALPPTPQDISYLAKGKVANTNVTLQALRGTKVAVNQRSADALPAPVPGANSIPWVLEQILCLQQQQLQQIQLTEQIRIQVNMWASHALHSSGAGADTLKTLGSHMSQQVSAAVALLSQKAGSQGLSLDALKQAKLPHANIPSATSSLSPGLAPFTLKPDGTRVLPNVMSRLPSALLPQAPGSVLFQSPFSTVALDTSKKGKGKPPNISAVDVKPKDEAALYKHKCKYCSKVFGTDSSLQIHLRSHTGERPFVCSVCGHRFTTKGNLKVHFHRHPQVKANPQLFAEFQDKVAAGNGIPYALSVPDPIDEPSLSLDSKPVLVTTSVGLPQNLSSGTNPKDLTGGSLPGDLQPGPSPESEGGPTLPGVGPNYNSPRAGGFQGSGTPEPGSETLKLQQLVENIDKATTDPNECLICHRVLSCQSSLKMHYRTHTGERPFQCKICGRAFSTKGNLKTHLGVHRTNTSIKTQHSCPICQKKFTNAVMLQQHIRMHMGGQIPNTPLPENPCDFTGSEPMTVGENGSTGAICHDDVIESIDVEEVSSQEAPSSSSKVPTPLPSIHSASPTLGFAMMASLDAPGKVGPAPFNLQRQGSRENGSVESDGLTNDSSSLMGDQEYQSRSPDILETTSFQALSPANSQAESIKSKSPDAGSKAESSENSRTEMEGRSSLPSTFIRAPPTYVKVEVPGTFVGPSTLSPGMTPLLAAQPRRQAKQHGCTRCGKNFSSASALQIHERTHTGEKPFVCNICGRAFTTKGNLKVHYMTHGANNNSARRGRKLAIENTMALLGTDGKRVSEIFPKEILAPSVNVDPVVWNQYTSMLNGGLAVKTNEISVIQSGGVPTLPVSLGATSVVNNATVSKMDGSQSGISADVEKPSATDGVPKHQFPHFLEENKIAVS
Notes: 8-mer, flanks averaged, mean of replicates
CTAATCTC: 0.128
CTGTAAAG: 0.0645
ATTTTGGA: 0.331
GTCCACTA: 0.0192
CCGCAGAC: -0.296
AGTGACTC: -0.0768
CATGAAAC: 0.205
ACCGTATA: 0.0669
GGGGCGAA: -0.235
GGCATTGA: 0.0138
AGACCATC: -0.00988
AACGTACG: 0.0367
TATTTGCA: 0.279
ATAAAGTC: 0.264
ATCTGATG: 0.079
ACCTCCTA: -0.0281
CTCTCTTC: -0.191
GTAGTCAC: -0.158
AGCCTCCC: -0.217
CAGACGGC: -0.399
CCCCGCGG: -0.392
AAGCTTTA: 0.153
GCAGACGA: -0.0243
ACAAGCTG: -0.128
AGCTATCA: 0.174

Set 5 — method: RNA Bind-n-Seq; form: RNA; matrix: in vitro; concentration: 365 nM; reference: no-protein control; reading: higher = stronger binding; measurement: RBNS enrichment (R)
Target: RNA binding protein fox-1 homolog 2, RRM domain, GST-SBP tag (RBFOX2, Homo sapiens, UniProt O43251-10, residues 100-194)
Notes: natural RNA segment, single round, ends assumed
All sequences stand within: GGGAGUUCUACAGUCCGACGAUC … UGGAAUUCUCGGGUGCCAA
Target sequence (chain): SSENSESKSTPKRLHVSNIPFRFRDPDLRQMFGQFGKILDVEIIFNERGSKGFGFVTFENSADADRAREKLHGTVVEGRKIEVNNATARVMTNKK
CUGCCAAAAUGCUCCGAAAUCUAAAACGUGUUGAGCACCAACAGGAUACCACAAGUAAAAACUUUAGUUAGUUCAUCUACAAAAGUAUUCAAAAGAAUACAUAGACUGGA: 0.289
AUCUUCUGGGCCCAGAGUCAGGGUCUCUGUGUCCCCUGUGCCUCCUGGGGACUGCUGCUGUCCUGCCCUUGUAAGCCAUGGCUGAUCACUUUUGGUCAAUAUGUCAAAAU: 0.392
GUGGGGCGGGGAAGUGCUCUAACUUUUCUUAAGGUUUUGUUGCUAGCCCUUCAAGUGCACUGAGCUAUGUGACUCGGAUGGUCUUUCACACGGCACAUUUGGACAUUUCC: 0.295
CAGGAGGAUGUGCCUAGGUUAUAUGCAAAUACUGUGCCAUUUUAUAUCAGGAACUUGAGCAUCUGCAGAUAUUGGUAUCGGAGGGCGGUCCUGGAACCAAGCAUCCACGG: 0.694
GGGCAACUUCCUGAGAUGAAUGAAGUACAGGAAAAUGAAAGAUUAGAGGGAUGUGUGACGGAAUACAGUAUUAGGGUUCACCAUAGCAGACUCUGCGCUUUAUCUGUCUA: 0.855
GUGGGUGGGUGAAUGGCAGGCUUCUGUAGGAACUUGUGUAAUUAUGCCAUUUUUAUAUUCCUAAUAAAUGGCAAAGAGACAAGAAUAGGACCUUGGAUGGAAAUUCCCUG: 1.1
AGCUAUGUUUCUGAUGCCAAUCACACUAGCACCAUUACAUGCUGGGCAGGUGCUGGGCAGCACAGACGCUGGAGACCUGUUUGCCACUGCUUGUCCCCCAUUCAUCUUUG: 0.508
UAGGUUGUACGUCAUUCUCGAUGUUUAACAUGAGAAGCAAGGAAGGCAUGAUUUUUAUCAGUGAUUUAUAUUGGGAAUGAAAACCGUUCCUGCCUCCUCCCAAGGGAAGG: 0.957
AGUUCUAGACCCCUCCAAUUUCUCAUCUGGUUGCAAGGCUUAUUUUUCUUUUGUACUUUCCUAUAGAUGCUAUAGCAUUUGAGUGUGGCAAUAUUUUUGUUGUGUAUAGA: 0.859
GCCUCCUCCAUCAGAUGCCUGGGCCUCCUCCAUCAGAUGUCUGGGCCUCCUCCAUCAGAUGCCUGGGCCUCCUCCAUCAGAUGUCUGGGCCUCCUCCAUCAGAUGUCUGG: 0.305
AAAACACCUGUUGACCUGAGAGAAGUAAAUUCCAGAAGGGAACCAAGAACUCUUCCCUUCCCUGGUGAGUAUUUCCAUUAUUCCGUUAAGGUUUAAUAUGCAUUCAGAUU: 0.562
AAGUGUAUUUGCUAUUGUUUUCAAAGUGCUGACAAAGUUUAUAUUUGUAAUGCCAGCAUUCCUCUUCCCCAUUUCCAGCUGUCACUCCUUCAUUAAACUGCUGAGUCAUU: 0.836

Repeated from above (set 2):
TTAGATTTCAGTATCGACTAGTGCTAG: 3.6 z-score
GACGGTCTCGGGTATCGGGACGTGCTA: 2.27 z-score
TCATCCCTAATTCTGATACTGTGCTAG: 0.504 z-score
GACGGACTGGGGTATCGGTACGTGCTA: 1.93 z-score
TTCATTTTGTGTCTGGGCATGTGCTAG: 0.0895 z-score
TTTGGTTTCCTTATCCTTTAGTGCTAG: 3.2 z-score
